Assay results of several laboratories.
Parts stem from different laboratories: compare values within a part only. “And” joins repeats or separate records; there may be more than shown.
Chain of UniProt P48729 (whole entry, looked up): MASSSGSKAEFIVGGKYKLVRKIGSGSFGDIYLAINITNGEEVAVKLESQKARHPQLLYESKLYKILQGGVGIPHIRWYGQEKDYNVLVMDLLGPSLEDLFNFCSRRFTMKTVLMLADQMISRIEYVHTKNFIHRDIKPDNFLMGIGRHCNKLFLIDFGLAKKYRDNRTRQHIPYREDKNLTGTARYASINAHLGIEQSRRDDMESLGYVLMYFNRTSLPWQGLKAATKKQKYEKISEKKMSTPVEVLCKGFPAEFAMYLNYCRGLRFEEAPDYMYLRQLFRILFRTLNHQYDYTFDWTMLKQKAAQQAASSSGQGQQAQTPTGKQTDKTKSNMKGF
Chain of UniProt Q8TDC3 (whole entry, looked up): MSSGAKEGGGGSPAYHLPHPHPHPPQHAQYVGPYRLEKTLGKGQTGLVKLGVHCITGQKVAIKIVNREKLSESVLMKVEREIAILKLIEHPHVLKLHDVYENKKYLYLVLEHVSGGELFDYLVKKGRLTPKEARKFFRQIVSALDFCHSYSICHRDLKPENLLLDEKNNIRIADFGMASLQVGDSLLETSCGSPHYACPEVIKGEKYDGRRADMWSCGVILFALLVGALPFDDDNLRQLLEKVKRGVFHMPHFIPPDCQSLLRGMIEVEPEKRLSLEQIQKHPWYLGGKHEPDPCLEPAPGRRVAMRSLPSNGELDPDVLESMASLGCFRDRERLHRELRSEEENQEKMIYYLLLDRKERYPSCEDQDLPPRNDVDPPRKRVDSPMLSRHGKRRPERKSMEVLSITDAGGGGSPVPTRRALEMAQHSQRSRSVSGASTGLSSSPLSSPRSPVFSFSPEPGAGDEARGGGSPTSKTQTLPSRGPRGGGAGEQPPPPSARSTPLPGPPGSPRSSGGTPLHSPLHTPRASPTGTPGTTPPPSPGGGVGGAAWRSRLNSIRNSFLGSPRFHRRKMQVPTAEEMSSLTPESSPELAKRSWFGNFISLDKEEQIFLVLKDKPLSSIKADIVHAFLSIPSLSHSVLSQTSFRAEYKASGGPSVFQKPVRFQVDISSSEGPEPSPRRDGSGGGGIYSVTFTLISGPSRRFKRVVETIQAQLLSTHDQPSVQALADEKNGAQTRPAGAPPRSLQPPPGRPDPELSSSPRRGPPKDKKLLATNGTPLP
Chain of UniProt Q92630 (whole entry, looked up): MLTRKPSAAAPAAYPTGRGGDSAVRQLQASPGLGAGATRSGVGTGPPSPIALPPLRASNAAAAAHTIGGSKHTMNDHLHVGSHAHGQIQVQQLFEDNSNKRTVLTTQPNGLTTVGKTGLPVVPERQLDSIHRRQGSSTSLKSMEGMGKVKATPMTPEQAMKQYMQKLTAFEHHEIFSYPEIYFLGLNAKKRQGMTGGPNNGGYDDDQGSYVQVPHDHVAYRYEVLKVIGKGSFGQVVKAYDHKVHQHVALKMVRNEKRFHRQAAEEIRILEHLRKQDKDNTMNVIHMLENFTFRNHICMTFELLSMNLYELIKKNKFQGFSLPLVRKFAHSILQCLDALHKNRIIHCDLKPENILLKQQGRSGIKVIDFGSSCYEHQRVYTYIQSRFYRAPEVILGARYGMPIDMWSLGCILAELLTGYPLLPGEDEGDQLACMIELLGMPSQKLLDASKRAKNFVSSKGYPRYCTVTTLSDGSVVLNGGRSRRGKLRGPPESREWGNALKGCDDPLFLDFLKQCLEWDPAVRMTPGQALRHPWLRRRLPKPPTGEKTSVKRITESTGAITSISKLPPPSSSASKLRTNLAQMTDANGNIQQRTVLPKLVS
Chain of UniProt O94804 (whole entry, looked up): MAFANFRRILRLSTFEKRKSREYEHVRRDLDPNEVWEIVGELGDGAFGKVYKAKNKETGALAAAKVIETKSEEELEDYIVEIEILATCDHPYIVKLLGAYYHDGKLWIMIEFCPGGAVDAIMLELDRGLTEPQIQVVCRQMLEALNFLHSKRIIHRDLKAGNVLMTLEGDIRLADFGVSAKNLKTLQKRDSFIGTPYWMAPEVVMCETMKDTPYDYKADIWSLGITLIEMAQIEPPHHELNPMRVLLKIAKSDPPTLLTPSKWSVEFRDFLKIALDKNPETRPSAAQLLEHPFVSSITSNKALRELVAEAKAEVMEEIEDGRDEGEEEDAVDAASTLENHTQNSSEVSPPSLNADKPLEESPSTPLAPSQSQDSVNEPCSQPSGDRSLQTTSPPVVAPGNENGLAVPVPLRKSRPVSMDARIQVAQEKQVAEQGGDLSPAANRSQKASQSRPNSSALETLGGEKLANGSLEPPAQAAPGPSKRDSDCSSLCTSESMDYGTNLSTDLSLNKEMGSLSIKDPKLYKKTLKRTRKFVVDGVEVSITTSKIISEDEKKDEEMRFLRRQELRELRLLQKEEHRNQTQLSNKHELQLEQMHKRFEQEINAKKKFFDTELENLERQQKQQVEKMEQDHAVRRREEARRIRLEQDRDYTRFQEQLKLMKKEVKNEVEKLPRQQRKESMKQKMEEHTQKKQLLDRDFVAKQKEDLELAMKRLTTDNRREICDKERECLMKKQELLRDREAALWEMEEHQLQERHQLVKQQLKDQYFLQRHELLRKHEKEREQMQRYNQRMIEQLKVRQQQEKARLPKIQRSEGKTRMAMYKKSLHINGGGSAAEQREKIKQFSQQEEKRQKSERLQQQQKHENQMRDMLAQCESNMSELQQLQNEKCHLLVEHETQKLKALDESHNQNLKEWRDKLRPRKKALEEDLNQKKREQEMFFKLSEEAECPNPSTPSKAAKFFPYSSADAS
Chain of UniProt O14757 (whole entry, looked up): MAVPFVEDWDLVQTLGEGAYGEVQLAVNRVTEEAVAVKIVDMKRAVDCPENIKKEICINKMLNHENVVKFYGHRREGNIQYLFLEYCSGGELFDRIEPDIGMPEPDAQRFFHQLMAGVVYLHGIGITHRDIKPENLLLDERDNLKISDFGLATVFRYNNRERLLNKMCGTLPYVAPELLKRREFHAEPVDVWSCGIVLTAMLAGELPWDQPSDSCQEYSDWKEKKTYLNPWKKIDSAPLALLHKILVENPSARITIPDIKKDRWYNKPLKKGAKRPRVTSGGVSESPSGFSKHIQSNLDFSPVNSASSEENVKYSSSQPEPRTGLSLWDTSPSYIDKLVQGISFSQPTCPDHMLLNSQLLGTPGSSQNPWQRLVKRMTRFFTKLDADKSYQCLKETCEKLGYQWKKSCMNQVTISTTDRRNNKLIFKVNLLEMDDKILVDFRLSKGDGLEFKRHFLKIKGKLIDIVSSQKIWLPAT
Chain of UniProt Q9HBY8 (whole entry, looked up): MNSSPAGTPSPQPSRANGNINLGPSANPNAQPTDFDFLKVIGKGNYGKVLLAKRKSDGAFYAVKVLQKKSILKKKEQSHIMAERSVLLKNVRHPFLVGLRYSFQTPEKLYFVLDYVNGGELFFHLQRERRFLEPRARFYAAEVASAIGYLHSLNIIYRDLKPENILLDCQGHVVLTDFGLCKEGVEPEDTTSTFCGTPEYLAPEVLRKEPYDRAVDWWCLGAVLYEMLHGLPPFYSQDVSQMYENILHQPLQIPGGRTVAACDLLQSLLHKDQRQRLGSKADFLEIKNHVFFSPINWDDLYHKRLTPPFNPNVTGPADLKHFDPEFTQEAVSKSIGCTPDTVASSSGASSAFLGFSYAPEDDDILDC

Series 1
Cell line: HCC1569
Effect on: CDK1 Thr14 phosphorylation
Method: in-cell western
Concentration: 4.12 nM
Direction: lower = stronger inhibition
| Structure (SMILES) | phospho-CDK1 (Thr14) level |
| --- | --- |
| Cc1ccc(O)c(C)c1-c1cnc2[nH]c(-c3cnc(N4CCC(CN5CCN(c6cc7c(cc6F)c(N6CCC(=O)NC6=O)nn7C)CC5)CC4)nc3)cc2c1C#N | 19.6 a.u. and 29.5 a.u. |
| Cc1ccc(O)c(C)c1-c1cnc2[nH]c(-c3cnc(N4CCC5(CC4)CC(N4CCN(c6ccc(NC7CCC(=O)NC7=O)cc6F)CC4)CO5)nc3)cc2c1C#N (stereo not drawn) | 24.9 a.u. and 30.2 a.u. |
| Cc1ccc(O)c(C)c1-c1cnc2[nH]c(-c3cnc(N4CCC(CN5CCC(c6ccc(NC7CCC(=O)NC7=O)cc6F)CC5)CC4)nc3)cc2c1C#N (stereo not drawn) | 22.2 a.u. and 29.7 a.u. |
| Cc1ccc(O)c(C)c1-c1cnc2[nH]c(-c3cnc(N4CCC(CN5CCN(c6ccc(NC7CCC(=O)NC7=O)cc6F)CC5)CC4)nc3)cc2c1C#N (stereo not drawn) | 20.1 a.u. and 26.4 a.u. |
| Cc1ccc(O)c(C)c1-c1cnc2[nH]c(-c3cnc(N4CCC(CN5CCN(c6ccc7c(c6)C(=O)N(C6CCC(=O)NC6=O)C7=O)CC5)CC4)nc3)cc2c1C#N (stereo not drawn) | 17.8 a.u. and 22.8 a.u. |

Series 2
SMILES: C[C@@H]1CN(c2ccc(-c3cc(C(=O)NCCOCCOCCOCCOCCNC(=O)/C=C/c4[nH]cc(C(=O)N[C@@H](CC(N)=O)c5ccc(F)c(Cl)c5)c4-c4ccc(Cl)cc4F)ccc3F)cc2NC(=O)c2c[nH]c(=O)cc2C(F)(F)F)C[C@H](C)N1C
Effect on: thermal unfolding
Method: differential scanning fluorimetry
Concentration: 5.5 µM
Direction: higher = more unfolded
WDR5: WD repeat-containing protein 5 (WDR5, Homo sapiens, UniProt P61964)
DCAF1: DDB1- and CUL4-associated factor 1 (DCAF1, Homo sapiens, UniProt Q9Y4B6)
Chain of UniProt Q9Y4B6 (whole entry, looked up): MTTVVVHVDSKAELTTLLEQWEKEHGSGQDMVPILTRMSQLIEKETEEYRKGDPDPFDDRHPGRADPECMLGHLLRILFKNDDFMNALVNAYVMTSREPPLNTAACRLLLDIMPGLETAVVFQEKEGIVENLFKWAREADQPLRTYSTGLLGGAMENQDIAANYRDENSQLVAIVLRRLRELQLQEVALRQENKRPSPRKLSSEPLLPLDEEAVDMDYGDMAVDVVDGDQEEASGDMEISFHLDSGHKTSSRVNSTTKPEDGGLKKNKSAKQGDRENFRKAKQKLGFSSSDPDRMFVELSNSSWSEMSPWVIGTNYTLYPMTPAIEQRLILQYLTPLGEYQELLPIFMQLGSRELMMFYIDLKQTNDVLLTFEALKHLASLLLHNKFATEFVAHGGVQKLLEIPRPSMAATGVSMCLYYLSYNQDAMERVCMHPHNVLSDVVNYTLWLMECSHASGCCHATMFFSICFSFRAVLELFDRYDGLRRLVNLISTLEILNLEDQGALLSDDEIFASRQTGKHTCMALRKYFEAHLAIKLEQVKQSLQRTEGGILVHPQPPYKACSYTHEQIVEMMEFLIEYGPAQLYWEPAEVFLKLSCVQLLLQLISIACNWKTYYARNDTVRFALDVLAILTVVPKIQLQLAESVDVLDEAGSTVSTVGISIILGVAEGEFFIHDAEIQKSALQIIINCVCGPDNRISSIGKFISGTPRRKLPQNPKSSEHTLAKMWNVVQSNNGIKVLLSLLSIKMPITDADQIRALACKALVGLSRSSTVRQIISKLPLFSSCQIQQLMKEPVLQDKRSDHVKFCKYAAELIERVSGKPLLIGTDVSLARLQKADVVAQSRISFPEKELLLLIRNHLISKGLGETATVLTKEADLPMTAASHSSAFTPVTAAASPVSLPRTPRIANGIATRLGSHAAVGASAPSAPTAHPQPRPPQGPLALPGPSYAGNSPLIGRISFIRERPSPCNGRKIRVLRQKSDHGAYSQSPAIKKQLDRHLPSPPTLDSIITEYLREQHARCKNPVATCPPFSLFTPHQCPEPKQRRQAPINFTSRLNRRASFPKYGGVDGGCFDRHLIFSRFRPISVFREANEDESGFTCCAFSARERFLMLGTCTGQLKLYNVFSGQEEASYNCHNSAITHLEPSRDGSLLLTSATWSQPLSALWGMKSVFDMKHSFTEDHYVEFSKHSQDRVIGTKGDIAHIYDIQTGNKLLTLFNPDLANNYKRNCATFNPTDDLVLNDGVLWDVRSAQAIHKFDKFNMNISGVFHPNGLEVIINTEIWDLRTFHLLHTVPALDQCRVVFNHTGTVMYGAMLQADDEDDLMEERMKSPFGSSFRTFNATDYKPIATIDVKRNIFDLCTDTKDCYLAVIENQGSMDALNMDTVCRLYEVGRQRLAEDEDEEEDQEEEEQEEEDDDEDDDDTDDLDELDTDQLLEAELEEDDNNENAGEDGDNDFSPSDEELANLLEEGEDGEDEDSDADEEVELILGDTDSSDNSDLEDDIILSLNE
| target | temperature | SYPRO Orange fluorescence [a.u.] |
| --- | --- | --- |
| WDR5 | 34.8 °C | 13200 |
| DCAF1 | 37 °C | 10600 |
| WDR5 | 65.01 °C | 14000 |
| WDR5 | 87.61 °C | 53500 |
| WDR5 | 38.6 °C | 14100 |
| WDR5 | 92.21 °C | 48300 |
| DCAF1 | 27.2 °C | 8860 |
| WDR5 | 30.4 °C | 12800 |
| DCAF1 | 56.01 °C | 24000 |
| DCAF1 | 53.81 °C | 19200 |
| WDR5 | 39.8 °C | 13900 |

Series 3
SMILES: COc1cc(-c2nc3ccc(C(=O)NCCCN4CCN(c5cccc(C)c5C)CC4)cc3n2C2CCC2)cc(OC)c1OC
Effect on: binding
Method: competition with immobilised ligand
Concentration: 1 µM
| target | remaining binding |
| --- | --- |
| MARK1 (Homo sapiens, UniProt Q9P0L2) | 87% |
| CSF1R (Homo sapiens, UniProt P07333) | 96% |
| PRPF4B (Homo sapiens, UniProt Q13523) | 100% |
| FLT3 (Homo sapiens, UniProt P36888, D835V) | 79% |
| SGK2 (Homo sapiens, UniProt Q9HBY8) | 92% |
| PKN2 (Homo sapiens, UniProt Q16513) | 92% |
| PIKFYVE (Homo sapiens, UniProt Q9Y2I7) | 92% |
| DSTYK (Homo sapiens, UniProt Q6XUX3) | 78% |
| MUSK (Homo sapiens, UniProt O15146) | 92% |
| MARK4 (Homo sapiens, UniProt Q96L34) | 83% |
| Ribosomal protein S6 kinase alpha-2, N-terminal kinase domain (RPS6KA2, Homo sapiens, UniProt Q15349) | 81% |
| Tyrosine-protein kinase ABL1, phosphorylated (ABL1, Homo sapiens, UniProt P00519, Y253F) | 86% |
| BRSK1 (Homo sapiens, UniProt Q8TDC3) | 100% |
| CSNK1A1 (Homo sapiens, UniProt P48729) | 94% |
| SGK3 (Homo sapiens, UniProt Q96BR1) | 89% |
| COQ8B (Homo sapiens, UniProt Q96D53) | 99% |

Series 4
Structure (SMILES): CNc1ncc2cc(-c3cc(OC)cc(OC)c3Cl)c(=O)n(CCc3ccc(NC(=O)C(C#N)=CC(C)(C)N4CCOCC4)cc3)c2n1
Effect on: kinase activity
| target | concentration | inhibition [%] |
| --- | --- | --- |
| TEC (Homo sapiens, UniProt P42680) | 1 µM | 16 |
| CHEK1 (Homo sapiens, UniProt O14757) | 0.1 µM | 0 |
| PKN1 (Homo sapiens, UniProt Q16512) | 0.1 µM | -3 |
| IKBKE (Homo sapiens, UniProt Q14164) | 0.1 µM | -1 |
| PAK3 (Homo sapiens, UniProt O75914) | 1 µM | 8 |
| PTK2 (Homo sapiens, UniProt Q05397) | 1 µM | 4 |
| DYRK3 (Homo sapiens, UniProt O43781) | 1 µM | -3 |
| STK10 (Homo sapiens, UniProt O94804) | 1 µM | 9 |
| STK3 (Homo sapiens, UniProt Q13188) | 1 µM | 4 |
| SIK1 (Homo sapiens, UniProt P57059) | 1 µM | 1 |
| CAMK2G (Homo sapiens, UniProt Q13555) | 1 µM | -2 |
| INSRR (Homo sapiens, UniProt P14616) | 0.1 µM | -1 |
| DYRK2 (Homo sapiens, UniProt Q92630) | 0.1 µM | 3 |
| EPHB2 (Homo sapiens, UniProt P29323) | 0.1 µM | -5 |
| PRKD3 (Homo sapiens, UniProt O94806) | 0.1 µM | 7 |
| NTRK2 (Homo sapiens, UniProt Q16620) | 1 µM | 4 |

A few entries again (series 3):
| target | remaining binding |
| --- | --- |
| PRPF4B (Homo sapiens, UniProt Q13523) | 100% |
| PIKFYVE (Homo sapiens, UniProt Q9Y2I7) | 92% |
| COQ8B (Homo sapiens, UniProt Q96D53) | 99% |
| MUSK (Homo sapiens, UniProt O15146) | 92% |
| MARK1 (Homo sapiens, UniProt Q9P0L2) | 87% |
